Measured values from different studies.
Numbered parts are unrelated; each lists some results of a single study.

Series 1
Target: PABPC1L2, full length, GST fusion (mouse, UniProt A0ABA7IW68)
Method: RNAcompete
Form: RNA
Medium: in vitro
Concentration: 20 nM
Notes: 7-mer, probes averaged, single round
Relative to: mean of 7-mers
Direction: higher = stronger binding
Target sequence (chain): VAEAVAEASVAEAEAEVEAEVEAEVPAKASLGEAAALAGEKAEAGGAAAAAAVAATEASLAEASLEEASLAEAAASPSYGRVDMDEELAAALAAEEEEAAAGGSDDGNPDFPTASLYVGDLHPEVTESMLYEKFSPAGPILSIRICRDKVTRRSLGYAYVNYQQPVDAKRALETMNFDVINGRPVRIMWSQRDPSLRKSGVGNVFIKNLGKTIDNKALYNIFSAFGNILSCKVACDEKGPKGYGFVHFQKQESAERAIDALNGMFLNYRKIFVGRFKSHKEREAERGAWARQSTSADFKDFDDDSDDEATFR
Sequence | 7-mer Z-score
CGUUUGU | -0.547
UUGUUAG | -0.335
CCGAGUA | 0.0207
CGGAACU | -0.0609
UGCGGGA | 0.119

Series 2
Target: Ras GTPase-activating protein-binding protein 1, C-terminal RGG region (G3BP1, Homo sapiens, UniProt Q13283)
Chain of UniProt Q13283 (whole entry, looked up): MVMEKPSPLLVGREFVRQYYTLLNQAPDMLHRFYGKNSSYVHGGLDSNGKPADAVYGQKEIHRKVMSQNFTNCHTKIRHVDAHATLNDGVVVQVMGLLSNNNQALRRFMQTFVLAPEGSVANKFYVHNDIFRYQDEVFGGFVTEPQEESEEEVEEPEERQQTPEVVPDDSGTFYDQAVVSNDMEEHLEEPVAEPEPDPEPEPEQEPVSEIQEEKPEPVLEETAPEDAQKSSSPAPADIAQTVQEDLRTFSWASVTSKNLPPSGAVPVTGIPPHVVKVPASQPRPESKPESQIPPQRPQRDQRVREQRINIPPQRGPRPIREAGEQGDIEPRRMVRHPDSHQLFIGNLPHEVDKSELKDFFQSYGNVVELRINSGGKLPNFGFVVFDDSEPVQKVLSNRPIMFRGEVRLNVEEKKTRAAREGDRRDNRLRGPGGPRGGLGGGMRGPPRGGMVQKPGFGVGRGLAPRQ
Method: RNA Bind-n-Seq
Form: RNA
Medium: in vitro
Concentration: 1 µM
Notes: whole 134-nt RNA, ends assumed
With: 150 mM KCl
Relative to: input library
Direction: higher = stronger binding
Sequence | log2 enrichment
GGGAGUUCUACAGUCCGACGAUCGUCCUGUGCUACACAUCGUAUGUACCGAAUCGGGGUUUUUGGUUUUUGGGUUUUUGGGGAAAGUAUUAUGUUACGCCGUUCGGAUCUGCAUGGAAUUCUCGGGUGUCAAGG | -0.997
GGGAGUUCUACAGUCCGACGAUCUACAGACAACACGCACCCACACAGACACAGAGGGAAGGGGUUGGGAUGGGGACAGGGUGCACAGCAGGGCGGGGUAGGACCCCAGCCCCUUGGAAUUCUCGGGUGUCAAGG | -0.276
GGGAGUUCUACAGUCCGACGAUCCAAGUCCUGUGCUACACAUCGUAUGUACCGAAUCGGAAAGGUUUGGAAAAAAAGGAAAGUAUUAUGUUACGCCGUUCGGAUCUGCACUUCUGGAAUUCUCGGGUGUCAAGG | -1.82

Series 3
Target: RNA binding protein fox-1 homolog 2, RRM domain, GST-SBP tag (RBFOX2, Homo sapiens, UniProt O43251-10, residues 100-194)
Method: RNA Bind-n-Seq
Form: RNA
Medium: in vitro
Concentration: 365 nM
Notes: natural RNA segment, single round, ends assumed
Relative to: no-protein control
Direction: higher = stronger binding
All sequences stand within: GGGAGUUCUACAGUCCGACGAUC … UGGAAUUCUCGGGUGCCAA
Target sequence (chain): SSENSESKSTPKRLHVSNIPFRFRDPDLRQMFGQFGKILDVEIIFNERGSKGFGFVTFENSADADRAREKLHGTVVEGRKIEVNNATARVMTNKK
Sequence | RBNS enrichment (R)
GGCGGGGAAAUGGCUGUGCGGUGCGGGACGGAAGACUGGAAACCCUCAAAGCAUCUGACUCACCUGCAUGAUCACAAGCUUUCUUUGACGGUUUCUCCCAUCCGUGUUCC | 9.86
GCAAGAUAACUACUCGUGAGUAUUCAGAAUGUUGUUCCUAAUAAAUGCACUUGUUGUCUGUCUUCUUUAAUCAAAUCACAUCUUAUAUACAGCAGUCAGAGAUGAGUAUA | 0.42
AUAUUUUGUAUUUUCACCUUUAUAAACAUGAAUCCUCAGGGGUGAAGAACUGUUUGCAUAAUUUUCUGAAUUUUGAGCACUUUGUGCUAUAUAAGGACCCAUAUUUAAGC | 1.32
AACCCUCGUGCAGCUGAGCUGGGGCCGCCAAAGACCGGGGCUGCCAAAGGGGCAGAGGGUGGUGGAGAGGAGAGGGAGAAAGGGAAGUCCCAGGGCCCGGGGUCCACAGA | 1.3
ACUCGUGGCCAGACGGACAGCACUCCUGGCCAGAUGGACCCACCAGUAUCAGCGAGGAGGGGCUUGUCUCCUUCAGAGUUAACAUGGAGGACGAUUGGAGAAUCUCCCUG | 0.328
AAAUAUCCCUGUUCUUAGUUACCUUGCCACUUUGGCUUCUCCUGUGGCCCUGCCUUUACCAUAUCAGUGACAGAGAGAGGCUGCUUCAGGUCUGAGGCUAUCCCUCAGCC | 0.353

Single results of other studies
Substance | target | assay | system | setting | scale | quantity | value
PhoQ, residues 284 288 289 292 302 303 AGGCYF | PhoP, residues 12 14 15 18 19 HLGGL (Escherichia coli, UniProt P23836) | Sort-seq, measured: YFP reporter | E. coli | PhoQ-PhoP variant library, with: 10 µM Mg2+ | relative to: high Mg2+ state, higher = stronger signaling | fold induction | 4.62
